Results of several laboratories.
Each numbered part is a random draw from the data of one study; scales do not carry over between parts.

Set 1 — technique: RNA Bind-n-Seq; molecule type: RNA; medium: in vitro; concentration: 1 µM; setting: whole 134-nt RNA, ends assumed; added: 150 mM KCl; baseline: input library; direction: higher = stronger binding
Target: Ras GTPase-activating protein-binding protein 1, C-terminal RGG region (G3BP1, Homo sapiens, UniProt Q13283)
UniProt Q13283, sequence (whole entry, looked up): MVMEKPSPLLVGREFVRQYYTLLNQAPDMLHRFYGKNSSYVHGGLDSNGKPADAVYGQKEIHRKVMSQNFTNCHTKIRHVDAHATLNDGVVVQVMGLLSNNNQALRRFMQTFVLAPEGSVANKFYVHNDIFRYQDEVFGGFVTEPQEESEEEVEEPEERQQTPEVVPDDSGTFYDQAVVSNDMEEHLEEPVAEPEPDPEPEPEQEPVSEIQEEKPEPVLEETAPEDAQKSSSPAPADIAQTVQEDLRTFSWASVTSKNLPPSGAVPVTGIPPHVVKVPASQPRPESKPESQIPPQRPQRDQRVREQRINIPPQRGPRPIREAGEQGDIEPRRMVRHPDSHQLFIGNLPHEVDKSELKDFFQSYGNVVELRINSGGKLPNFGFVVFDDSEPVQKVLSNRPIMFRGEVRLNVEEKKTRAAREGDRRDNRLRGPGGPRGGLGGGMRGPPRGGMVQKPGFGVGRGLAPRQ
Constant ends, left off below: GGGAGUUCUACAGUCCGACGAUC … UGGAAUUCUCGGGUGUCAAGG
Sequence | log2 enrichment
UGGGAGGUGGAUUUUGUCUAUUUUUUUAGCUCAUUUCCAGGGGUGGGAAUUUUUUUUUAAUAUGUGUCAUGAAUAAAGUUGUUUUUGAAA | 3.24
UGUGCUACACAUCGUAUGUACCGAAUCGGGUUUUUUUGGGGUUUUUUUGGGGUUUUUUUGGGAAAGUAUUAUGUUACGCCGUUCGGAUCU | -0.484
CUCAAGUCCUGUGCUACACAUCGUAUGUACCGAAUCGGCCGGGGCCGGCCGGGAAAGUAUUAUGUUACGCCGUUCGGAUCUGCACUUCCA | -1.2
CACAGACAACACGCACCCACACAGACACAGAGGGAAGGGGUUGGGAUGGGGACAGGGUGCACAGCAGGGCGGGGUAGGACCCCAGCCCAU | -1.06
UUGGCUACAAUGCAGAGACACAGAAACUACUAUGCAAGAAUGGGGAAACGCUGCUAGGAGCCGUGAACUUCUUUGUCUCUAGCAUCAACA | -1.21
AAGUCCUGUGCUACACAUCGUAUGUACCGAAUCGGGGUGGGGAAAAAGGGGUGGGGAAAGUAUUAUGUUACGCCGUUCGGAUCUGCACUU | 1.92
GUCCUGUGCUACACAUCGUAUGUACCGAAUCGGGUGGGAAAAAAAGGGUUUUUUUGGGAAAGUAUUAUGUUACGCCGUUCGGAUCUGCAC | -0.248
UCCUGUGCUACACAUCGUAUGUACCGAAUCGGGGUUUUUUGGUUUUUUGGGUUUUUUGGGAAAGUAUUAUGUUACGCCGUUCGGAUCUGC | -0.768
CUCAAGUCCUGUGCUACACAUCGUAUGUACCGAAUCGGUUUUUGGUUUGGUGGAAAGUAUUAUGUUACGCCGUUCGGAUCUGCACUUCCA | -1.31
UAACUUUAGAGGAGGAUCUGAUGGACAUGGCAGUGGACGUGGAUUUGGGGAUGGCUAUAAUGGGUAUGGAGGAGGACCUGGAGGUGGCAA | -1.17

Set 2 — technique: universal PBM; molecule type: double-stranded DNA, one strand shown; medium: in vitro; concentration: 600 nM; direction: higher = stronger binding
Target: Sal-like protein 4, full length isoform A (SALL4, Homo sapiens, UniProt Q9UJQ4, residues 1-1053)
UniProt Q9UJQ4, sequence (whole entry, looked up): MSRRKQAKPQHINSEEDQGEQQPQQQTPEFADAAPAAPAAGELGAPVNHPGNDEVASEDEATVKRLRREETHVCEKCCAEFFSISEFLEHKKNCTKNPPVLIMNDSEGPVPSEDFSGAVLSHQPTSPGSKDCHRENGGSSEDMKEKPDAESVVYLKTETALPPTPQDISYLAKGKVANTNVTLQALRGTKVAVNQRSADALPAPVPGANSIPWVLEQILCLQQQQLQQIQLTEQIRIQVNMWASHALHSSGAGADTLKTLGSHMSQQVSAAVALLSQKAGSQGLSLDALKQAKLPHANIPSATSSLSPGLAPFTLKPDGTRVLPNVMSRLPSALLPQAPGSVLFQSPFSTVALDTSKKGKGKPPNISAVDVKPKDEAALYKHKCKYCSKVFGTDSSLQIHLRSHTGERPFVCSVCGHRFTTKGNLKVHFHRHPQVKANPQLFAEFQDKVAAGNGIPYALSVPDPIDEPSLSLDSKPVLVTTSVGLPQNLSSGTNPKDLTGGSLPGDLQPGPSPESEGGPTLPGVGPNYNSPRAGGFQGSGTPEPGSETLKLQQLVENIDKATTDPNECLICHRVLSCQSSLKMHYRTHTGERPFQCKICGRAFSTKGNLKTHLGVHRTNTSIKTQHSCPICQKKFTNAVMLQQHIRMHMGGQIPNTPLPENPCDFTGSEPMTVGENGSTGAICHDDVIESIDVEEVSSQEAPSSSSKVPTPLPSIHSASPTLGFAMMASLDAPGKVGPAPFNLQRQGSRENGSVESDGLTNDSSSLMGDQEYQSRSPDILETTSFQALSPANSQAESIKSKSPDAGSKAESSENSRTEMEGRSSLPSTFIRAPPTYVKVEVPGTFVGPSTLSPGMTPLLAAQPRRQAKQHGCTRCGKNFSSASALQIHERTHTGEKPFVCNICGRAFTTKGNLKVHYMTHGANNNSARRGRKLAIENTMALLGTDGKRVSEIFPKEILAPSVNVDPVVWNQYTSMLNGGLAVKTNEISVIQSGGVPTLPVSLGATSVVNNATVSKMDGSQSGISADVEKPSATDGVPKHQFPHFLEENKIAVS
Setting: 8-mer, flanks averaged, mean of replicates
Sequence | E-score
AATGTTAC | 0.17
GCGTCGCC | -0.325
ACGAATGA | 0.15
CAAGGAAA | 0.0113
ACGAGAAA | 0.174
ATAAGTTG | 0.174
CCTCAGCC | -0.301
ATCCGAAG | 0.0243
CGTCCCGC | -0.272
CGCTCTAC | -0.0533
CATCTAAG | -0.102
CCGAGCTC | -0.243
ACGTACCG | -0.125
CTAGCGTA | -0.166
CATGCCCG | -0.196
CCACCTTA | -0.00651

Set 3 — technique: RNA Bind-n-Seq; molecule type: RNA; medium: in vitro; concentration: 365 nM; baseline: no-protein control; direction: higher = stronger binding
Target: RNA binding protein fox-1 homolog 2, RRM domain, GST-SBP tag (RBFOX2, Homo sapiens, UniProt O43251-10, residues 100-194)
Setting: natural RNA segment, single round, ends assumed
Constant ends, left off below: GGGAGUUCUACAGUCCGACGAUC … UGGAAUUCUCGGGUGCCAA
Residues (chain): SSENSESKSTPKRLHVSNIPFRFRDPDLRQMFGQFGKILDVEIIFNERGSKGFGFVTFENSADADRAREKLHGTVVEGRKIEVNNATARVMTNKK
Sequence | RBNS enrichment (R)
UGUGCUUUCUUAAUGUGUGUGCCAAUGGUGGAUCUUUGCUACUGAAUGUGUUUGAACAUGUUUUGAGAUUUUUUUAAAAUAAAUUAUUAUUUGACAACAAUCCAAAAAAA | 1.5
ACCUAAGCACUAAACUCUCUUGAGAGACUUCUGUUGCUAAGAAGACCGCAGCUUCUGGAGCCAGGGGUGCAGACCCUUCCAGAGUUCCCAGACCGUGUGACACAGCACAG | 0.22
UAUGGGCCGUUUAUAUACCUUUGGUGAAAUGUCUAUUUAAAUCUUUUGCUCACUUUUCAGUUGGGUUUUUUUUCUUAUUAAAUAGUAAGAGUUCUUAAUAUAUUCUGGAU | 0.637
CUCCACUGUCUAUGUAGGUUGUGGGUGUGGGGAGGUUGAGGUAGAGGGAAGAGGGUCGAGAGGGUUCCACUGUCUUGAGAGCUUCCUUUUGCUUUCUUCUCUUGCCUCUG | 0.728
UUUCAAUCAGUCUCGUGCUCUGUCCCUUUACAUCGGUAUGCGACUAUUACAAUCACUGUGUGUGUGUCUUUUCUUAGCAAAGGCGUUUUAAAACUUGAGCCUGGACCUUG | 0.345
UAUUGCCCUUAAGAGCUUUAAAGAUAGUUUUUUUUACAUGCCUUAUGCAUACAUUCCACUACUGACACUCUCAAGGUAAUAUUAAACAUGAUCUAGGUACUAAGAUAUUC | 0.393
AUAAAUGGAAAGAAAGUUUUAUUUCCUUUUUUGUUUGAUGGGCAGUAUGCCAUAUUAUACCCAAAGUUCUUUUAAAAAAUAUUUCCAUCAACCAUUUUUAUUUAAAAUAA | 0.845
AUCCCCAGACCAAAGAGGUUCUCGAAGCAGCUGUGACCAGCCCCUCCCCCCACUUGUCCCCCGUCCUUGCAGCUCCAGCACUGCCUUUGUGGGUGACCACUCCAGACCCU | 0.372
CUAUGCUCUACCCCCAGGGUAGCAUCUCAGCUUCCGAACCCUGGGCUGUUUCCUUAGUCUUCAUUUUAUAAAAGUUGUUGCCUUUUUAACGGAGUGUCACUUUCAACCGG | 0.541
UUGUAAAAAUUUAAAUAAAUGAAUGUCUAUACUUUUUAUAAAGAAAAGUGAAAAUACCAUGACACUGAAAAGAUGAUGCUAUCAGAUGCUGUUUAGAAAGCAUUUAUCUU | 1.61
GCUGGAAGAGGCUCAGCGUUUGUGCUUGACUGCUGACCACCAGUGGUGCCAGAAGGCCUCAUCCUACAUCCUGCUCUCCUGGAUUGUUAAGACUAUAAAGUACUACUGUA | 0.406
CUUCAUCAUCUUUGAGAUCAUUAGAGCCUGUAUAAAGGGGAUUAUGGCCCUGCCUUCUAUGUCACACAUAGGAUUUGGUGUCAUUAGUGUUUGCUGUCAUGCCCCAUGAG | 0.607

Set 4 — technique: protein binding microarray; molecule type: double-stranded DNA, one strand shown; medium: in vitro; concentration: not given; baseline: not given; direction: higher = stronger binding
Target: Histone acetyltransferase KAT6A, winged helix 2, GST fusion (KAT6A, Homo sapiens, UniProt Q92794, residues 85-181)
Setting: 8-mer, flanks averaged, mean of 2 arrays, mostly near background
Residues (chain): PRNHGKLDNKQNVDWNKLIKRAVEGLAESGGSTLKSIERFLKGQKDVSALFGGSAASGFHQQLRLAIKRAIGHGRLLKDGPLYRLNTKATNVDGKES
Sequence | E-score
CTCATGCA | -0.0532
ATTGTCTA | 0.0188
CGAAGTCA | -0.111
TACCTCGA | 0.0538
TCTGACCA | 0.0624
ATAACAAG | 0.189
ATGTACTA | -0.0759
CGGCAAAC | 0.131
CGCTGGTA | 0.00728
GGCGGACC | 0.158
GGCTAACC | -0.0948
GTGATGAA | -0.23
CATTCGTC | 0.00761
CCTCTTAC | 0.0408
CCGCGCGC | 0.22
AGAAATAG | 0.00843
TCAAGCCA | -0.0485
CTGCTCTC | 0.0609
ACTCTTAT | 0.0609
TATCGGCA | 0.0921
GGTACGAA | 0.105
CAGTTACC | -0.121
CGGCCGCC | 0.102
AAGTTCCC | -0.143
AGGATCAA | 0.0527

A few entries again (set 4):
Sequence | E-score
TCTGACCA | 0.0624
CGCTGGTA | 0.00728
GTGATGAA | -0.23
AGAAATAG | 0.00843
